Experimental data of several laboratories.
Compare with care: the assays were run in different laboratories. Several values in a cell are separate wells, animals, samples, runs or records.
DRD4: D(4) dopamine receptor (DRD4, Homo sapiens, UniProt P21917)
Chain of UniProt P21917 (whole entry, looked up): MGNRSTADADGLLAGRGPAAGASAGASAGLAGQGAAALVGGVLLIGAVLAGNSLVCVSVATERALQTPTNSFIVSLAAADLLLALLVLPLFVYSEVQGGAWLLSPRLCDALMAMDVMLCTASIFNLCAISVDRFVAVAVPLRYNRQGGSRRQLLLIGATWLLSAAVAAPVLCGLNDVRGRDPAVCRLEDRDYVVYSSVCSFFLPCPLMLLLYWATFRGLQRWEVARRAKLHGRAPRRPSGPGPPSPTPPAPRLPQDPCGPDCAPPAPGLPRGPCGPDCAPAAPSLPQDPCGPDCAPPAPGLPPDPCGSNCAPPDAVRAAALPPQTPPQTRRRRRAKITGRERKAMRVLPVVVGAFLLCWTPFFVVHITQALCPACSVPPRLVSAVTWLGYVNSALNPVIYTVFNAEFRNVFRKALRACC
CNR1: Cannabinoid receptor 1 (CNR1, Homo sapiens, UniProt P21554)
Chain of UniProt P21554 (whole entry, looked up): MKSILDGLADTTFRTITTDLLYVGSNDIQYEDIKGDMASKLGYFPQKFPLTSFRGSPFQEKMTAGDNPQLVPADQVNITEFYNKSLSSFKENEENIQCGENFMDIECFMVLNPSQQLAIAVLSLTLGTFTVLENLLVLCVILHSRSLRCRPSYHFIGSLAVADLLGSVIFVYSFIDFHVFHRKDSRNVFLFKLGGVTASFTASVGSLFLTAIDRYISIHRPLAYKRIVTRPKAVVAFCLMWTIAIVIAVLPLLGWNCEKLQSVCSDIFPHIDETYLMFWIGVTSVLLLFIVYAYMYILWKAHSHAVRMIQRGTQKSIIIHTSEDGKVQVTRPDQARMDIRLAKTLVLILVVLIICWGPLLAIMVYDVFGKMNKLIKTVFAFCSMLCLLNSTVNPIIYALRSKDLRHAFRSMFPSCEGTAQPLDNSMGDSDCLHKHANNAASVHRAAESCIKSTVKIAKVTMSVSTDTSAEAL
ADRA1A: Alpha-1A adrenergic receptor (ADRA1A, Homo sapiens, UniProt P35348)
Chain of UniProt P35348 (whole entry, looked up): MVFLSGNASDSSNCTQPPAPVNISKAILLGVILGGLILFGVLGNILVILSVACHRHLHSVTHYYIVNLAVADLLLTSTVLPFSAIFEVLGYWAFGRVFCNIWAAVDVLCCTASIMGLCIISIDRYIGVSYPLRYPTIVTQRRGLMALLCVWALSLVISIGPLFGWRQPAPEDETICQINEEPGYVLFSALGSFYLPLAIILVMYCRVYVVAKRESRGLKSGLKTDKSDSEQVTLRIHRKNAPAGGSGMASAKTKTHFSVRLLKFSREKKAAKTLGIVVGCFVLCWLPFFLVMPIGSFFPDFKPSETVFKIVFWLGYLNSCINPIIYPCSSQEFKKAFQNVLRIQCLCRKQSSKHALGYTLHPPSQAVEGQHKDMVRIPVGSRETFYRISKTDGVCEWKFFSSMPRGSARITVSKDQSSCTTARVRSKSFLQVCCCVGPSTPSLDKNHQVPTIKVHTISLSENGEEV
HDAC8: Histone deacetylase 8 (HDAC8, Homo sapiens, UniProt Q9BY41)
Chain of UniProt Q9BY41 (whole entry, looked up): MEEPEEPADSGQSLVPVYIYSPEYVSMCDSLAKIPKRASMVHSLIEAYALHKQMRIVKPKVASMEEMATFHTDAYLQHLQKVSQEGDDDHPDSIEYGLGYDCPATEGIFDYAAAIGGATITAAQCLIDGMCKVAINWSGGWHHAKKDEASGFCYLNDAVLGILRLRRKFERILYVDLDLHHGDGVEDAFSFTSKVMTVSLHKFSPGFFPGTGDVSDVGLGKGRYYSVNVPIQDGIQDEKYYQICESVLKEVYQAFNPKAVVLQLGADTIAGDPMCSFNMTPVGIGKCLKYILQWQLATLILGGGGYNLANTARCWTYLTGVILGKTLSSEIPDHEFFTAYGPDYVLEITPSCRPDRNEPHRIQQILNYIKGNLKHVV
POL4: DNA polymerase IV (POL4, Saccharomyces cerevisiae, UniProt P25615)
Chain of UniProt P25615 (whole entry, looked up): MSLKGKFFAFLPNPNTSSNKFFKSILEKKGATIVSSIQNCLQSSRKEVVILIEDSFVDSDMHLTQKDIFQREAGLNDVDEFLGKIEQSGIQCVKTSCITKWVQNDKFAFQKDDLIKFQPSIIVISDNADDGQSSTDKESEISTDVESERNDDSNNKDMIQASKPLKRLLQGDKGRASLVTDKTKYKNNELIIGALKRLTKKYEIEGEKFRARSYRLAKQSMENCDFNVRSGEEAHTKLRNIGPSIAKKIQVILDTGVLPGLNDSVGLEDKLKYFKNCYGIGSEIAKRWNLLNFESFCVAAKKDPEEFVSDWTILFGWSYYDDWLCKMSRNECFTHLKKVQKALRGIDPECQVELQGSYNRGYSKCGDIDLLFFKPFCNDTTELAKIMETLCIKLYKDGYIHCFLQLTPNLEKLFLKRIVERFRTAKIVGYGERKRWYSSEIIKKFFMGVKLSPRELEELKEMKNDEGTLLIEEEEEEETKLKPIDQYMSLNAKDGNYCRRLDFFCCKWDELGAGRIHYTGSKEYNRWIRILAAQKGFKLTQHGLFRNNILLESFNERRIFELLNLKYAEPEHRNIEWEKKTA
Chain of UniProt Q8ILG2 (whole entry, looked up): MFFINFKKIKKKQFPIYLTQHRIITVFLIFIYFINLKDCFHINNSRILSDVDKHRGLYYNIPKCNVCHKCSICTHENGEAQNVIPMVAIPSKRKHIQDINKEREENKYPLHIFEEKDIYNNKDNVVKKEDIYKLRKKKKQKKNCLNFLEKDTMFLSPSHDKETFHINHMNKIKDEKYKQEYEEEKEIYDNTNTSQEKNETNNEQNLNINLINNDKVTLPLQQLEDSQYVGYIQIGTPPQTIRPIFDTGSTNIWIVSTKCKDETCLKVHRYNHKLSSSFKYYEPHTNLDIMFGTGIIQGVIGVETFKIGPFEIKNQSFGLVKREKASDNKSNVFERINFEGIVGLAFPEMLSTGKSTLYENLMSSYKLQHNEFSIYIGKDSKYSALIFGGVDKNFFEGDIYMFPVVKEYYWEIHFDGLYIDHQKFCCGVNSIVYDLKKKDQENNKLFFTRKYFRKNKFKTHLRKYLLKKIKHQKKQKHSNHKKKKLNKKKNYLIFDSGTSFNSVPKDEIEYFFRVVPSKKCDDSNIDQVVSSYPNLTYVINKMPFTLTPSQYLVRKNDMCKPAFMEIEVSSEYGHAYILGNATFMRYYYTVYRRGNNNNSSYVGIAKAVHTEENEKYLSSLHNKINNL
Chain of UniProt Q06124 (whole entry, looked up): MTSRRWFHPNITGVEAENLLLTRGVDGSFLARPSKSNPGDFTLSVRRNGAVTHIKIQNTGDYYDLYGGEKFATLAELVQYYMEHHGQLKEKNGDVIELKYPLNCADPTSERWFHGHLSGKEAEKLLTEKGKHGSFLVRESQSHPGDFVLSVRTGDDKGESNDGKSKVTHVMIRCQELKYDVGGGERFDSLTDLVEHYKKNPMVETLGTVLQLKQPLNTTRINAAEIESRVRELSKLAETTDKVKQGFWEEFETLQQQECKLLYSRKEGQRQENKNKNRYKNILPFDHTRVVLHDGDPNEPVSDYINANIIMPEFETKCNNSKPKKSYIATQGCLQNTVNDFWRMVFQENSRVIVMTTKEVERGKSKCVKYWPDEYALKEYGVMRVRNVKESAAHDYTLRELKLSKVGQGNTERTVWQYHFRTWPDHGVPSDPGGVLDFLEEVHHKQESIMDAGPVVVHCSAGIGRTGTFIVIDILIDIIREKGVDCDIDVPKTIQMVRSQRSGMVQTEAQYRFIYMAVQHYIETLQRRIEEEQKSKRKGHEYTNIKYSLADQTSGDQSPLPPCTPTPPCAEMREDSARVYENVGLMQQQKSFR
Chain of UniProt P05177 (whole entry, looked up): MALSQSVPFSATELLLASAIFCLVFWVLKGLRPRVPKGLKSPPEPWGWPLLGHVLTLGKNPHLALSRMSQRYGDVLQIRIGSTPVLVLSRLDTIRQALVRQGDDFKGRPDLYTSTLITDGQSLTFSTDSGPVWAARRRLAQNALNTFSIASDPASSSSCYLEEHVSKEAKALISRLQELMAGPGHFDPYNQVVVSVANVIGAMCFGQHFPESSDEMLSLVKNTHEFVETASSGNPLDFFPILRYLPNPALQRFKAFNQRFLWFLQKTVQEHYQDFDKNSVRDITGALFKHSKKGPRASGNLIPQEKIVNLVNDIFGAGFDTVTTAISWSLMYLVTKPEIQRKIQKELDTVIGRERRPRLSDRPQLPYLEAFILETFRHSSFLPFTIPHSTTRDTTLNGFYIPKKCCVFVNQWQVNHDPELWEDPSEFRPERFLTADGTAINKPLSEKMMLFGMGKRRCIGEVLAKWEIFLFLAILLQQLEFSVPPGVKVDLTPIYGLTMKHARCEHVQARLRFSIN
Chain of UniProt P08588 (whole entry, looked up): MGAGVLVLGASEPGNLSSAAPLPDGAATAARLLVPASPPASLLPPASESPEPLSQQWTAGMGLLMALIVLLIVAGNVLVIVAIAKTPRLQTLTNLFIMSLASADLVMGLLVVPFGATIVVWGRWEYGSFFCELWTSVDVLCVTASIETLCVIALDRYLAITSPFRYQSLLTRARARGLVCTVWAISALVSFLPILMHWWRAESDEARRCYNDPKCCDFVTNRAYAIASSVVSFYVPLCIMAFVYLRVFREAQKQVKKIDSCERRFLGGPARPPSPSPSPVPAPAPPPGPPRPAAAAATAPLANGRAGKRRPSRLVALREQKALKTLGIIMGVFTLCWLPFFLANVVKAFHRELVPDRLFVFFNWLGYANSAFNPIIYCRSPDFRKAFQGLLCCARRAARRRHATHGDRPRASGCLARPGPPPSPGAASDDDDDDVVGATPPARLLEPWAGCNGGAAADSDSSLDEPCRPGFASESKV
Chain of UniProt Q07440 (whole entry, unmodified, looked up): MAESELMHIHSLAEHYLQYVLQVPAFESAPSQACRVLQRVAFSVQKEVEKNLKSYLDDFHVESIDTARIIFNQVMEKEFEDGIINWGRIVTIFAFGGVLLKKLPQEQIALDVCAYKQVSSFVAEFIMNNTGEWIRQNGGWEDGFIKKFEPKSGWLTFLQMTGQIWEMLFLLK

Compound	target	test	test system	setting	Ki
Fc1cc(-c2ccc3c(n2)[nH]c2ccncc23)ccn1	Microtubule-associated protein tau, PSP brain aggregates (MAPT, Homo sapiens, UniProt P10636)	binding, competition binding	human, PSP brain tissue	with: [3H]compound tracer	0.0089 µM
Fc1ccc(OCC2CN(Cc3ncn4ccccc34)CCC2(F)F)cc1F (stereo not drawn)	DRD4	ligand displacement, radioligand	–	cell membranes	0.00269 µM
OCC1OC(n2cnc3c(NCc4ccc(Br)s4)ncnc32)C(O)C1O (stereo not drawn)	Equilibrative nucleoside transporter 1 (SLC29A1, Homo sapiens, UniProt Q99808)	ligand displacement, radioligand	–	–	0.052 µM
CCOC(=O)[C@H](Cc1ccc(OC)cc1)NC(=O)c1ccc(C2CC2)c(Cc2ccc(F)cc2)n1	CNR1	ligand displacement, radioligand	–	cell membranes	0.6 µM
CC(C)c1ccc(N(C)c2ccc3c(c2)OCC[C@H]3CNc2cnccc2C(=O)O)cc1	Lysine-specific demethylase 4C (KDM4C, Homo sapiens, UniProt Q9H3R0)	enzyme activity, inhibitor, TR-FRET	–	–	0.52 µM
Cn1ccc2c(N3CCN(CCCCOc4ccc5c(c4)NC(=O)CC5)CC3)cccc21	Beta-1 adrenergic receptor (ADRB1, Homo sapiens, UniProt P08588)	ligand displacement, radioligand	–	–	0.431 µM
CNC[C@H](O)c1cccc(OCCOCCOCC#Cc2cccc(Cn3c(-c4ccccc4)c(-c4ccccc4)c4c(=N)n([C@H]5CC[C@H](O)CC5)cnc43)c2)c1	ADRA1A	ligand displacement, radioligand	–	cell membranes	0.423 µM
CCC1(CC)CC(=O)N(C2c3cc(C(=O)NC4c5ccccc5CC4O)ccc3OC2(C)COC)C(=N)N1 (stereo not drawn)	Plasmepsin IX (Plasmodium falciparum, UniProt Q8ILG2)	enzyme activity, inhibitor, peptide cleavage	–	–	0.000683 µM and 0.00068 µM
CC(C)c1ccccc1OS(=O)(=O)Oc1cccc(C(=O)NO)c1	HDAC8	enzyme activity, inhibitor, fluorescence	–	–	0.208 µM
CCOC(=O)C(CC)(CCCOC)NC(=O)c1ccc(C2CC2)c(Cc2ccc(F)cc2)n1 (stereo not drawn)	CNR1	ligand displacement, radioligand	–	cell membranes	0.0056 µM
COc1ccc(-c2coc3cc(O)cc(O)c3c2=O)cc1	Cytochrome P450 1A2 (CYP1A2, Homo sapiens, UniProt P05177)	enzyme activity, inhibitor	human, liver microsomes	15 min	55.8 µM
CCN(CC)CCNc1ccc(C)c2sc3ccccc3c(=O)c12	Bcl-2-related protein A1 (Mus musculus, UniProt Q07440, C113S/P104K)	ligand displacement, FP	–	–	15.2 µM
Fc1ccc(OCC2CN(Cc3ncc4ccccn34)CCC2(F)F)cc1 (stereo not drawn)	DRD4	ligand displacement, radioligand	–	cell membranes	1.41 µM
CCOC(=O)C(CC)(CCCSCCOCCOCCOCCOCCN)NC(=O)c1ccc(C2CC2)c(Cc2ccc(F)cc2)n1 (stereo not drawn)	CNR1	ligand displacement, radioligand	–	cell membranes	0.164 µM
Cn1cnc2cc(CN3CCC(F)(F)C(COc4cccc(C#N)c4)C3)ccc21 (stereo not drawn)	DRD4	ligand displacement, radioligand	–	cell membranes	0.497 µM
CC1Cc2ccccc2N1C(=O)CN1CCN(Cc2ccccc2)CC1 (stereo not drawn)	ADRA1A	ligand displacement, radioligand	–	–	7.7 µM
O=C(NCCCOP(=O)(O)OP(=O)(O)OP(=O)(O)O)OCC1c2ccccc2-c2ccccc21	POL4	DNA polymerase activity, inhibitor, [3H]dTTP incorporation	–	with: poly(dA)/oligo(dT)	0.25 µM
CCc1c(Cl)cccc1N1CCN(C[C@@H](F)CCNC(=O)c2cc3ccccc3[nH]2)CC1	DRD4	ligand displacement, radioligand	–	cell membranes	> 10 µM

Compound	target	test	test system	setting	Ki
CCOC(=O)[C@](CC)(CCCSCCOCCOCCN)NC(=O)c1ccc(C2CC2)c(Cc2ccc(F)cc2)n1	CNR1	ligand displacement, radioligand	–	cell membranes	0.064 µM
CNC[C@H](O)c1cccc(OCCOCC#Cc2cccc(Cn3c(-c4ccccc4)c(-c4ccccc4)c4c(=N)n([C@H]5CC[C@H](O)CC5)cnc43)c2)c1	ADRA1A	ligand displacement, radioligand	–	cell membranes	0.788 µM
Fc1ccc(OCC2CN(Cc3ncn4ccccc34)CCC2(F)F)cc1 (stereo not drawn)	DRD4	ligand displacement, radioligand	–	–	0.117 µM
Cc1ccnc(OC[C@H]2CN(CCN3CCc4ccccc43)CCO2)c1	DRD4	ligand displacement, radioligand	–	–	1.93 µM
CCOC(=O)C(CC)(CCCSCCCCCCN)NC(=O)c1ccc(C2CC2)c(Cc2ccc(F)cc2)n1 (stereo not drawn)	CNR1	ligand displacement, radioligand	–	cell membranes	0.204 µM
CN1CCC[C@@H]1C(=O)N[C@@H](Cc1ccc(-c2ccccc2)cc1)B(O)O	20S proteasome (Plasmodium falciparum, UniProt A0A5K1K7U1+Q8IJT1)	inhibitor, progress curve	–	Ki as apparent Ki/2	0.0014 µM
COc1ccccc1-c1ccn2nc(NC(=O)C3CC3)cc2c1	Serine/threonine-protein kinase SIK2 (SIK2, Homo sapiens, UniProt Q9H0K1)	enzyme activity, inhibitor	–	–	0.022 µM
O=C(NO)c1cc(F)cc(OS(=O)(=O)Oc2ccc3ccccc3c2)c1	HDAC8	enzyme activity, inhibitor, fluorescence	–	–	0.828 µM
COc1ccc(CN2CCC(F)(F)C(COc3nc(C)cs3)C2)cc1F (stereo not drawn)	DRD4	ligand displacement, radioligand	–	cell membranes	0.855 µM
O=C(NCCCCCCOP(=O)(O)OP(=O)(O)OP(=O)(O)O)OCC1c2ccccc2-c2ccccc21	POL4	DNA polymerase activity, inhibitor, [3H]dTTP incorporation	–	with: poly(dA)/oligo(dT)	0.25 µM
Cc1cc(C(C)(C)C)ccc1OS(=O)(=O)Oc1cncc(C(=O)NO)c1	HDAC8	enzyme activity, inhibitor, fluorescence	–	–	3.28 µM
COc1ccc(CN2CCC(F)(F)C(COc3ccc(F)c(C)c3)C2)cc1F (stereo not drawn)	DRD4	ligand displacement, radioligand	–	cell membranes	0.0129 µM
CCOC(=O)C(CC)(CCCSCCOCCOCCN=[N+]=[N-])NC(=O)c1ccc(C2CC2)c(Cc2ccc(F)cc2)n1 (stereo not drawn)	CNR1	ligand displacement, radioligand	–	cell membranes	0.464 µM
COc1ccc(CN2CCC(F)(F)C(COc3ncc(C)s3)C2)cc1F (stereo not drawn)	DRD4	ligand displacement, radioligand	–	cell membranes	0.21 µM
O=C(NO)c1cncc(OS(=O)(=O)Oc2ccccc2-c2ccccc2)c1	HDAC8	enzyme activity, inhibitor, fluorescence	–	–	1.12 µM
C=C1C(=O)C2(C(=O)N3CCN(c4ccc(Br)cc4)CC3)CC(=O)CC1C2 (racemic)	Tyrosine-protein phosphatase non-receptor type 11 (PTPN11, Homo sapiens, UniProt Q06124)	enzyme activity, covalent inhibitor	–	reversible binding constant, with: pNPP	69.7 µM
N#Cc1ccc(OCC2CN(Cc3ncn4ccccc34)CCC2(F)F)cc1 (stereo not drawn)	DRD4	ligand displacement, radioligand	–	cell membranes	0.0017 µM
O=C(NCCCCOP(=O)(O)OP(=O)(O)OP(=O)(O)O)OCC1c2ccccc2-c2ccccc21	POL4	DNA polymerase activity, inhibitor, [3H]dTTP incorporation	–	with: poly(dA)/oligo(dT)	0.35 µM

Repeated from above:
Compound	target	test	test system	setting	Ki
CNC[C@H](O)c1cccc(OCCOCC#Cc2cccc(Cn3c(-c4ccccc4)c(-c4ccccc4)c4c(=N)n([C@H]5CC[C@H](O)CC5)cnc43)c2)c1	ADRA1A	ligand displacement, radioligand	–	cell membranes	0.788 µM
Fc1ccc(OCC2CN(Cc3ncn4ccccc34)CCC2(F)F)cc1 (stereo not drawn)	DRD4	ligand displacement, radioligand	–	–	0.117 µM
Cc1ccnc(OC[C@H]2CN(CCN3CCc4ccccc43)CCO2)c1	DRD4	ligand displacement, radioligand	–	–	1.93 µM
CCOC(=O)C(CC)(CCCSCCCCCCN)NC(=O)c1ccc(C2CC2)c(Cc2ccc(F)cc2)n1 (stereo not drawn)	CNR1	ligand displacement, radioligand	–	cell membranes	0.204 µM
CN1CCC[C@@H]1C(=O)N[C@@H](Cc1ccc(-c2ccccc2)cc1)B(O)O	20S proteasome (Plasmodium falciparum, UniProt A0A5K1K7U1+Q8IJT1)	inhibitor, progress curve	–	Ki as apparent Ki/2	0.0014 µM
COc1ccccc1-c1ccn2nc(NC(=O)C3CC3)cc2c1	Serine/threonine-protein kinase SIK2 (SIK2, Homo sapiens, UniProt Q9H0K1)	enzyme activity, inhibitor	–	–	0.022 µM
